Results collected from several papers.
Compare with care: the assays were run in different laboratories.

`C/C(=N/NC(=N)N)c1nnn(-c2ccc(C#CC(C)(C)C)cc2)c1C` gave an MIC of 4 µg/mL (Clostridioides difficile; microbial growth, broth dilution; BAA1870).
`CC1(C)S[C@@H]2[C@H](NC(=O)[C@H](NC(=O)C3=C(O)C(c4ccccc4F)NC3=O)c3ccccc3)C(=O)N2[C@H]1C(=O)O` (stereo partly drawn) gave an MIC of 25 µg/mL (Escherichia coli; broth microdilution; BW25113, Mueller-Hinton broth; together with: 2,2'-bipyridyl 30 µg/mL).
For `Oc1c(Cl)cc(Cl)c2cccnc12`, the MIC was 37.4 µM (Citrobacter freundii; microbial growth, agar dilution).
With `COc1c(NC(=O)c2ccc(NC(=O)c3ccc(NC(=O)[C@H](CC#N)NC(=O)c4ccc(NC(=O)/C(C)=C/c5ccc(O)cc5)cc4)cc3)c(OC)c2O)ccc(C(=O)O)c1O` the MIC was over 64 µg/mL (Proteus mirabilis; microbial growth; DSM4479).
With `O=C(NCc1nc(-c2ccc(Br)cc2)c[nH]1)Nc1ncc(Sc2ccccn2)s1` the MIC was 4 µM (Clostridioides difficile; broth microdilution; R20291; together with: verapamil 50 µg/mL).
`C[C@@H](c1ccn(Cc2cc(F)ccc2F)n1)[C@](O)(Cn1cnnn1)c1ccc(F)cc1F` gave an MIC of 0.25 µg/mL (Cryptococcus neoformans; growth, broth microdilution; H99; 72 h, 30 °C, ≥50% inhibition).
For `C[C@@H]1C(=O)O[C@@H](C)/C=C/C=C\[C@@H](C)[C@@H]2C=C[C@@H]3C[C@@]4(C)O[C@H]4[C@@H](C)[C@H]3[C@@H]2C(=O)C(Cl)(Cl)C1=O`, the MIC was 0.0125 µg/mL (Staphylococcus aureus; microbial growth, broth dilution; NEWMAN).
`O=[N+]([O-])c1cccc(S(=O)(=O)NC[C@@H](O)[C@@H]2CCc3cc(F)ccc3O2)c1` has an MIC of 14.3 µg/mL (Bacillus; microbial growth).
`Oc1c(Br)ccc2cccnc12` has an MIC of 35.7 µM (Citrobacter freundii; microbial growth, agar dilution).
The MIC of `CC(C)c1ccc(Cn2ccc([C@H](C)[C@](O)(Cn3cnnn3)c3ccc(F)cc3F)n2)cc1` is reported as under 0.008 µg/mL (Cryptococcus neoformans; CLSI broth microdilution; H99; 72 h).
`CC(=O)N[C@H](CCCCN)C(=O)N[C@H](CC(C)C)C(=O)N[C@H](CCCCN)C(=O)N[C@H](CO)C(=O)N[C@H](CC(C)C)C(=O)N[C@H](CC(C)C)C(=O)N[C@H](CCCCN)C(=O)N[C@@H](C(=O)N[C@H](CC(C)C)C(=O)N[C@H](CO)C(=O)N[C@H](CCCCN)C(=O)N[C@H](C)C(=O)N[C@H](CCCCN)C(=O)N[C@H](CCCCN)C(=O)N[C@H](CCCCN)C(=O)N[C@H](CC(C)C)C(=O)N[C@H](CC(C)C)C(=O)N[C@H](CCCCN)C(=O)N[C@@H](C(=O)N[C@H](C)C(=O)N[C@H](CC(C)C)C(=O)N[C@H](CCCCN)C(=O)N[C@H](C)C(=O)N[C@H](CC(C)C)C(=O)N[C@H](CO)C(=O)N[C@H](CCCCN)C(N)=O)[C@H](C)O)[C@H](C)O` gave an MIC of 0.3 µM (Acinetobacter baumannii; 985, Mueller-Hinton broth; 24 h, 37 °C).
`C[C@@H](c1ccn(Cc2cccc(F)c2F)n1)[C@](O)(Cn1cnnn1)c1ccc(F)cc1F` gave an MIC of 0.25 µg/mL (Cryptococcus neoformans; growth, broth microdilution; H99; 72 h, 30 °C, ≥50% inhibition).
`N#Cc1ccc2cccc(O)c2n1` has an MIC of over 1500 µM (Citrobacter freundii; microbial growth, agar dilution).
The MIC of `Cc1c(CN(C)C(=O)/C=C/c2cnc3c(c2)CC(N)C(=O)N3)oc2ccccc12` (stereo not drawn) is reported as 4 to 8 µg/mL (Enterobacter cloacae, Klebsiella pneumoniae, Acinetobacter baumannii).
`C[C@@H](c1ccn(Cc2ccccc2)n1)[C@](O)(Cn1cnnn1)c1ccc(F)cc1F` gave an MIC of 0.25 µg/mL (Cryptococcus neoformans; growth, broth microdilution; H99; 72 h, 30 °C, ≥50% inhibition).
For `CCC(O)CC#Cc1ccc(-n2nnc(/C(C)=N\NC(=N)N)c2C)cc1` (stereo not drawn), the MIC was over 64 µg/mL (Clostridioides difficile; microbial growth, broth dilution; BAA1870).
`C[C@@H](c1ccn(Cc2c(F)ccc(F)c2F)n1)[C@](O)(Cn1cnnn1)c1ccc(F)cc1F` has an MIC of 0.125 µg/mL (Cryptococcus neoformans; growth, broth microdilution; H99; 72 h, 30 °C, ≥50% inhibition).
`N#Cc1ccc(-c2c[nH]c(CNC(=O)Nc3ncc(Sc4ccccn4)s3)n2)cc1` gave an MIC of 2 µM (Clostridioides difficile; broth microdilution; R20291; together with: verapamil 50 µg/mL).
The MIC of `Oc1c(Br)cc(Br)c2nc3c(C(F)(F)F)cc(C(F)(F)F)cc3nc12` is reported as 0.05 to 0.2 µM (Gram-positive bacteria; range over strain panel).
`C[C@@H](c1ccn(Cc2ccc(Cl)cc2)n1)[C@](O)(Cn1cnnn1)c1ccc(F)cc1F` gave an MIC of under 0.008 µg/mL (Cryptococcus neoformans; growth, broth microdilution; H99; 72 h, 30 °C, ≥50% inhibition).
With `Oc1c(Br)cc(Br)c2nc3cc(SC(F)(F)F)ccc3nc12` the MIC was 0.04 to 0.78 µM (Gram-positive bacteria; range over strain panel).
The MIC of `CC(=O)N[C@H](CCCCN)C(=O)N[C@H](CC(C)C)C(=O)N[C@H](CCCCN)C(=O)N[C@H](CO)C(=O)N[C@H](CC(C)C)C(=O)N[C@H](CC(C)C)C(=O)N[C@H](CCCCN)C(=O)N[C@@H](C(=O)N[C@H](CC(C)C)C(=O)N[C@H](CO)C(=O)N[C@H](CCCCN)C(=O)N[C@H](C)C(=O)N[C@H](CCCCN)C(=O)N[C@H](CCCCN)C(=O)N[C@H](CCCCN)C(=O)N[C@H](CCCCN)C(=O)N[C@H](CC(C)C)C(=O)N[C@H](CCCCN)C(=O)N[C@@H](C(=O)N[C@H](CC(C)C)C(=O)N[C@H](CC(C)C)C(=O)N[C@H](CCCCN)C(=O)N[C@H](C)C(=O)N[C@H](CC(C)C)C(=O)N[C@H](CO)C(=O)N[C@H](CCCCN)C(N)=O)[C@H](C)O)[C@H](C)O` is reported as 0.3 µM (Acinetobacter baumannii; 1012, Mueller-Hinton broth; 24 h, 37 °C).
`C[C@@H](c1ccn(Cc2c(F)cccc2F)n1)[C@](O)(Cn1cnnn1)c1ccc(F)cc1F` has an MIC of 0.0625 µg/mL (Cryptococcus neoformans; growth, broth microdilution; H99; 72 h, 30 °C, ≥50% inhibition).
For `CC[C@@H](C)[C@@H](NC(=O)[C@@H](C)N)C(=O)N[C@H](CCCCN)C(=O)N[C@@H](C(=O)N[C@H](CCCNC(=N)N)C(=O)N[C@H](CCCCN)C(=O)N[C@H](CC(C)C)C(=O)N[C@H](Cc1ccccc1)C(=O)N[C@H](CCCCN)C(=O)N[C@H](CCCCN)C(=O)N[C@H](CC(C)C)C(=O)N[C@H](CC(C)C)C(=O)N[C@H](CCCNC(=N)N)C(N)=O)[C@H](C)CC`, the MIC was 12.5 µg/mL (Escherichia coli; ATCC 25922; 1 h, 37 °C, dividing cells in LB).

For quick reference, copied from above:
The MIC of `Cc1c(CN(C)C(=O)/C=C/c2cnc3c(c2)CC(N)C(=O)N3)oc2ccccc12` (stereo not drawn) is reported as 4 to 8 µg/mL (Enterobacter cloacae, Klebsiella pneumoniae, Acinetobacter baumannii).
The MIC of `CC(C)c1ccc(Cn2ccc([C@H](C)[C@](O)(Cn3cnnn3)c3ccc(F)cc3F)n2)cc1` is reported as under 0.008 µg/mL (Cryptococcus neoformans; CLSI broth microdilution; H99; 72 h).
